Measurements gathered from unrelated publications.
Each numbered part is a random draw from the data of one study; scales do not carry over between parts.

Series 1 — method: protein-binding microarray; molecule type: double-stranded DNA, one strand shown; sample: in vitro; tested at: 250 nM; notes: 60-bp whole probe; with: salmon DNA 0.4 mg/ml; baseline: random background probes; reading: higher = stronger binding; shared flanks, not repeated: GCCTAGCAC … GTCTTGATTCGCTTGACGCTGCTG
Target: Interferon regulatory factor 5, full length, phosphomimetic (IRF5, Homo sapiens, UniProt Q13568-2, residues 1-514, K96S/S451D/S453D/S456D/S462D)
Sequence	log fluorescence
ATAGGTCTCCTTCTCCTTTAGTGCTAG	-0.126 z-score
GACGGTATCGCGACTGGGGACGTGCTA	-0.0331 z-score
TGAGGTATCGGACTGGGTTAGTGCTAG	0.575 z-score
ACTAGCTTCCATTTTCTGAAGTGCTAG	0.952 z-score
TGAGGTATCCTACTGCTTTAGTGCTAG	-0.129 z-score
TCACTCCTCCTTCTCTAACTGTGCTAG	0.157 z-score
GACGATATCGGACTGGAGACGTGCTAG	0.827 z-score

Series 2 — method: competition protein-binding microarray; molecule type: double-stranded DNA, one strand shown; sample: in vitro; tested at: 2 µM; with: Cbf1 competitor, 0.05 µM; reading: higher = stronger binding; shared flanks, not repeated: … GTCTTGATTCGCTTGACGCTGCTG
Target: Phosphate system positive regulatory protein PHO4, full length, GST-tagged (PHO4, Saccharomyces cerevisiae, UniProt P07270, residues 1-312)
Notes: whole 60-bp probe, lowest competitor level
Residues (chain): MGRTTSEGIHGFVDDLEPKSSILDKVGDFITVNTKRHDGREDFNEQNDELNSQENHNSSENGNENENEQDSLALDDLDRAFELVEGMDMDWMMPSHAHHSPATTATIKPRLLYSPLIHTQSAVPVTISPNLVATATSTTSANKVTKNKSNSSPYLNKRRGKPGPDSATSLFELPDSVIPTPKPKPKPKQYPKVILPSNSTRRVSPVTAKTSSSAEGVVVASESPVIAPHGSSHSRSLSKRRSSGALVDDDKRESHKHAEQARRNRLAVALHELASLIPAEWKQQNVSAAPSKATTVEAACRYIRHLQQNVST
Sequence	fluorescence intensity [a.u.]
GCTCATCCTTCTGTTCATGCGTGAAGGCTGAATTAT	5670
ACCACTCAGGTCCAGAACGTGACTCGTCTTTGCACC	11300
CTTCTGTAAATTTGACTAGTGGGTGGACGCGCCCCG	4080
TCCTTATGCAGGTATTCTGTGACAGTAAAGTATAGA	4030
AAAGCGGTAATTTGTCACGCCACTTCACATATCTAT	5990
AAATTACTAAGTTTTCACGTGGCTTACCCCGTATGA	12300
AAGCCGCCAGGCGTTCTCGTGCGATAAAGTTGCAAA	7520
CACTGAGTACTTCCTCACCTGATCCAATCGATTGAC	3590
CTAACGAAGGTTTGCTTCGTGGGTGACAAGCCAAGT	5820

Series 3 — method: RNA Bind-n-Seq; molecule type: RNA; sample: in vitro; tested at: not given; baseline: input RNA pool; reading: higher = stronger binding
Target: RING finger protein unkempt homolog, zinc fingers 1-6, GST-SBP tag (UNK, Homo sapiens, UniProt Q9C0B0, residues 30-357)
Sequence of UniProt Q9C0B0 (30-357, looked up): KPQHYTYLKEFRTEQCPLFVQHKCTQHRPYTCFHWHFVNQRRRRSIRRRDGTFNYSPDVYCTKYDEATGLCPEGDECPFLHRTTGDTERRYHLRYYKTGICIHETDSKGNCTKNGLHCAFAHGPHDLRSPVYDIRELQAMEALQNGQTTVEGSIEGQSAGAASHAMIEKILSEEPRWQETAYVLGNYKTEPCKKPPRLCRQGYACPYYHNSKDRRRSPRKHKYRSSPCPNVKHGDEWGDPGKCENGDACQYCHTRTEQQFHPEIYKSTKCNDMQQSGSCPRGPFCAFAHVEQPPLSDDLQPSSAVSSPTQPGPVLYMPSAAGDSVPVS
Notes: RNA with constant flanks, human and mouse sites, ends assumed
Shared flanks, not repeated: GGGAGUUCUACAGUCCGACGAUC … CAACAGAGGAUUGAGCAUCA
Sequence	bound/input enrichment [ratio]
GAUCAGAAUGGAAUGACCCCUUUAAUGUGGGCAGCUUAUAGAACACAUAGUGUGGAUCCAACUAGAUUGCUUUUAACAUUCAAUGUUUCAGUUAACCUUGGUGACAAGUAUCACAAAAAC	0.317
CUAGUGUCUGUGCUCAAAGGACUGCCUUCUCCUCCAGUGCCCAGUGUGUGAAUGUGCGACCCUUCUUUCACCAUUCCGUGGCUGGACGUAGCCUUCUCCCUUACUGCAUCCCCAGGGGAU	0.157
AAAUGAAGGUACAUAUACAUGAUCUGAGUAACCAUUUCCUCUGUGGCCAAUCUGUAUGCUUUUAGAAGUUUACAAAACUGCUUUGGUUUUUGUCUGUAACCAUCUCUGUCAUCCCAAUAA	0.389
GGCAAAACUUUGUAGUCACCCUUAUCUGUGAAAUGAAUGACUUGUUUUAACAAAAACAACUUUGACACUGUUGAUUAAGAAUAUUUGUCAUCACUGGGAUGUGAAUCCCAACAAGUCAUU	0.16
GACCGCCUGGUAGCCUUUCCUACUCGAGUAGCAGGUGGAAUUGGAAUCACCUGUUGGAUUUUAGUCUGUAACAAAGUUGUGGCUAUCGUUCUCCACCCUUUCAGCUGAGGGGAAGGCCAG	0.374
AGCACUGAUCUGGCUGUAUACUGAUCCAUCACUAACCUGUUUUCUAGGACCCAGCGUAUGUAGCAUUUGUAUUGCAGUUUCCCUGGCUUACUUGUGUUUUGCACUGAUGAAUUUUGACAG	0.183
ACAAAUUCUAAGUCGGAGGAAGACAAGCAGCUAGCCAAUUCUUUAGAGAGCGUAGGGCCAAUAGAUUACAUUCUCCCAAGCUGUGGGAUUAUUGUGUCAGCACCUCGAUUAGGCAGUCGG	0.813

Mixed results
Substance	target	test	system	setting	how to read	measurement	result
PhoQ, residues 284 288 289 292 302 303 SACGEM	PhoP, residues 12 14 15 18 19 LFHKL (Escherichia coli, UniProt P23836)	Sort-seq, refers to: YFP reporter	E. coli	PhoQ-PhoP variant library, with: 10 µM Mg2+	baseline: high Mg2+ state, higher = stronger signaling	fold induction	9.77

Repeated from above (series 3):
Sequence	bound/input enrichment [ratio]
GAUCAGAAUGGAAUGACCCCUUUAAUGUGGGCAGCUUAUAGAACACAUAGUGUGGAUCCAACUAGAUUGCUUUUAACAUUCAAUGUUUCAGUUAACCUUGGUGACAAGUAUCACAAAAAC	0.317
CUAGUGUCUGUGCUCAAAGGACUGCCUUCUCCUCCAGUGCCCAGUGUGUGAAUGUGCGACCCUUCUUUCACCAUUCCGUGGCUGGACGUAGCCUUCUCCCUUACUGCAUCCCCAGGGGAU	0.157
